Results pooled from the literature.
“And” joins repeats or separate records; there may be more than shown.
Cell line: human red blood cells

SMILES = C[C@H](NC(=O)[C@H](CCCCN)NC(=O)[C@H](Cc1ccc(O)cc1)NC(=O)[C@H](CCCCN)NC(=O)[C@H](CCCCN)NC(=O)[C@H](CCCCN)NC(=O)[C@H](Cc1ccc(O)cc1)NC(=O)[C@H](CCCNC(=N)N)NC(=O)[C@H](CCCCN)NC(=O)[C@@H](N)CCCCN)C(=O)N[C@@H](Cc1ccc(O)cc1)C(=O)N[C@@H](CCCCN)C(=O)N1CCC[C@H]1C(=O)N[C@@H](Cc1ccc(O)cc1)C(=O)N[C@@H](CCCCN)C(=O)N[C@@H](CCCCN)C(=O)N[C@@H](CCCCN)C(=O)N[C@@H](CCCCN)C(=O)N[C@@H](CCCCN)C(=O)N[C@@H](Cc1ccccc1)C(N)=O; setting = 24 h, pH 7.4, 37 °C, 0.25% v/v erythrocytes; measurement = HC50; value = > 100 µM
SMILES = CC[C@H](C)[C@H](NC(=O)[C@H](CCCCN)NC(=O)[C@H](CC(C)C)NC(=O)[C@H](CC(C)C)NC(=O)[C@H](C)NC(=O)CNC(=O)[C@H](CC(C)C)NC(=O)[C@@H](N)Cc1ccccc1)C(=O)NCC(=O)N[C@@H](C)C(=O)N[C@@H](CCCCN)C(=O)N[C@@H](CC(C)C)C(=O)N[C@@H](CC(C)C)C(=O)N1CCC[C@H]1C(=O)N[C@@H](CO)C(=O)N[C@H](C(=O)N[C@H](C(=O)NCC(=O)N[C@@H](CC(C)C)C(=O)N[C@@H](Cc1ccccc1)C(=O)N[C@@H](CCCCN)C(=O)N[C@@H](CCCCN)C(=O)N[C@@H](CCCCN)C(=O)N[C@@H](CCC(N)=O)C(=O)N[C@@H](CCC(N)=O)C(=O)O)C(C)C)C(C)C; setting = 1 h; measurement = HC50; value = 39.9 to 61.5 µM and 28 to 60 µM
SMILES = CC[C@H](C)[C@H](NC(=O)[C@H](CCCNC(=N)N)NC(=O)[C@H](C)NC(=O)[C@@H](NC(=O)[C@H](CO)NC(=O)[C@@H](NC(=O)[C@@H](NC(=O)[C@H](CCC(N)=O)NC(=O)[C@H](CO)NC(=O)[C@@H](NC(=O)[C@@H](N)Cc1ccccc1)[C@@H](C)CC)[C@@H](C)CC)[C@@H](C)CC)[C@@H](C)O)C(N)=O; test = hemolysis; setting = 1 h, 37 °C; measurement = HC50; value = > 200 µM
SMILES = CC[C@H](C)[C@H](NC(=O)[C@H](CCCCN)NC(=O)[C@@H](NC(=O)[C@H](CC(N)=O)NC(=O)[C@H](CCCNC(=N)N)NC(=O)[C@H](CCCNC(=N)N)NC(=O)[C@H](CC(N)=O)NC(=O)[C@H](CCCNC(=N)N)NC(=O)[C@H](CCCNC(=N)N)NC(=O)[C@@H](NC(=O)[C@H](CO)NC(=O)[C@@H](NC(=O)[C@H](CS)NC(=O)[C@H](CCCCN)NC(=O)[C@@H](N)CCCNC(=N)N)[C@@H](C)CC)C(C)C)[C@@H](C)CC)C(=O)N[C@@H](CS)C(=O)N[C@@H](CC(N)=O)C(=O)O; setting = 128 µg/mL, 3 h, 37 °C; how to read = relative to: Triton X-100; measurement = hemolysis; value = 0.64%
SMILES = CC[C@H](C)[C@H](NC(=O)[C@H](C)NC(=O)[C@H](CCCCN)NC(=O)[C@H](CO)NC(=O)[C@H](CCC(=O)O)NC(=O)[C@@H]1CCCN1C(C)=O)C(=O)N[C@@H](CCCCN)C(=O)N[C@@]1(C)CCCC=CCCC[C@@](C)(C(=O)N[C@H](C(=O)N[C@@H](CO)C(=O)N[C@@H](CCCCN)C(=O)N[C@@H](CCC(=O)O)C(=O)N[C@@H](CCCNC(=N)N)C(=O)N[C@@H](CO)C(=O)N[C@@H](CCCCN)C(=O)N[C@@H](CCCNC(=N)N)C(=O)N[C@@H](CO)C(=O)N2CCC[C@H]2C(N)=O)C(C)C)NC(=O)[C@H](CCCCN)NC(=O)[C@H](CC(C)C)NC(=O)[C@H](CC(C)C)NC1=O; setting = 200 µM, 1 h, 37 °C, 1% BSA; how to read = relative to: Triton X-100; measurement = hemolysis; value = < 5%
SMILES = CC[C@H](C)[C@H](NC(=O)[C@H](CS)NC(=O)[C@H](CCCNC(=N)N)NC(=O)[C@H](CCCNC(=N)N)NC(=O)[C@H](CC(N)=O)NC(=O)[C@H](CCCNC(=N)N)NC(=O)[C@H](CS)NC(=O)[C@@H](NC(=O)[C@@H](NC(=O)[C@@H](NC(=O)[C@H](CS)NC(=O)[C@H](CCCCN)NC(=O)[C@@H](N)CCCNC(=N)N)C(C)C)[C@@H](C)CC)C(C)C)C(=O)N[C@H](C(=O)N[C@@H](CC(C)C)C(=O)N[C@@H](CS)C(=O)N[C@@H](CCCNC(=N)N)C(=O)O)[C@@H](C)CC; setting = 128 µg/mL, 3 h, 37 °C; how to read = relative to: Triton X-100; measurement = hemolysis; value = 3.79%
SMILES = CC[C@H](C)[C@H](NC(=O)[C@H](CCCNC(=N)N)NC(=O)[C@H](CC(C)C)NC(=O)[C@@H](NC(=O)[C@H](CO)NC(=O)[C@H](CC(C)C)NC(=O)[C@@H](NC(=O)[C@H](CCCCN)NC(=O)[C@H](CO)NC(=O)[C@H](CC(C)C)NC(=O)[C@@H](N)Cc1ccccc1)[C@@H](C)CC)[C@@H](C)O)C(=O)N[C@@H](CC(C)C)C(=O)N[C@@H](CC(C)C)C(N)=O; test = hemolysis; setting = 1 h, 37 °C; measurement = HC50; value = 50 µM
SMILES = CCCCCCCCCCCCCNCC(=O)N(CC(=O)N(CCCCN)CC(=O)N(CCN)CC(=O)N(CC(N)=O)C1CCCCC1)C1CCCCC1; test = hemolysis; setting = 1 h; measurement = HC10; value = 75 µg/mL
SMILES = CC[C@H](C)[C@H](NC(=O)[C@H](C)NC(=O)[C@H](CCCNC(=N)N)NC(=O)[C@H](CCCNC(=N)N)NC(=O)[C@H](CC(N)=O)NC(=O)[C@H](CCCNC(=N)N)NC(=O)[C@H](CCCNC(=N)N)NC(=O)[C@H](C)NC(=O)[C@@H](NC(=O)[C@H](CC(C)C)NC(=O)[C@@H](NC(=O)[C@@H](NC(=O)[C@H](CS)NC(=O)[C@H](CCCCN)NC(=O)[C@@H](N)CCCNC(=N)N)C(C)C)[C@@H](C)CC)C(C)C)C(=O)N[C@H](C(=O)N[C@H](C(=O)N[C@@H](CC(C)C)C(=O)N[C@@H](CS)C(=O)N[C@@H](CCCNC(=N)N)C(=O)O)[C@@H](C)CC)C(C)C; setting = 128 µg/mL, 3 h, 37 °C; how to read = relative to: Triton X-100; measurement = hemolysis; value = 3.46%
SMILES = CC[C@H](C)[C@H](NC(=O)[C@H](CCCNC(=N)N)NC(=O)[C@H](C)NC(=O)[C@@H](NC(=O)[C@H](CO)NC(=O)[C@@H](NC(=O)[C@@H](NC(=O)[C@H](CCC(N)=O)NC(=O)[C@H](CO)NC(=O)[C@@H](NC(=O)[C@@H](N)Cc1ccccc1)[C@@H](C)CC)[C@@H](C)CC)[C@@H](C)CC)[C@@H](C)O)C(=O)N[C@@H](CC(C)C)C(=O)N[C@@H](CC(C)C)C(N)=O; test = hemolysis; setting = 1 h, 37 °C; measurement = HC50; value = > 200 µM

Some of these lines once more:
SMILES = CC[C@H](C)[C@H](NC(=O)[C@H](C)NC(=O)[C@H](CCCCN)NC(=O)[C@H](CO)NC(=O)[C@H](CCC(=O)O)NC(=O)[C@@H]1CCCN1C(C)=O)C(=O)N[C@@H](CCCCN)C(=O)N[C@@]1(C)CCCC=CCCC[C@@](C)(C(=O)N[C@H](C(=O)N[C@@H](CO)C(=O)N[C@@H](CCCCN)C(=O)N[C@@H](CCC(=O)O)C(=O)N[C@@H](CCCNC(=N)N)C(=O)N[C@@H](CO)C(=O)N[C@@H](CCCCN)C(=O)N[C@@H](CCCNC(=N)N)C(=O)N[C@@H](CO)C(=O)N2CCC[C@H]2C(N)=O)C(C)C)NC(=O)[C@H](CCCCN)NC(=O)[C@H](CC(C)C)NC(=O)[C@H](CC(C)C)NC1=O; setting = 200 µM, 1 h, 37 °C, 1% BSA; how to read = relative to: Triton X-100; measurement = hemolysis; value = < 5%
SMILES = CC[C@H](C)[C@H](NC(=O)[C@H](CCCCN)NC(=O)[C@@H](NC(=O)[C@H](CC(N)=O)NC(=O)[C@H](CCCNC(=N)N)NC(=O)[C@H](CCCNC(=N)N)NC(=O)[C@H](CC(N)=O)NC(=O)[C@H](CCCNC(=N)N)NC(=O)[C@H](CCCNC(=N)N)NC(=O)[C@@H](NC(=O)[C@H](CO)NC(=O)[C@@H](NC(=O)[C@H](CS)NC(=O)[C@H](CCCCN)NC(=O)[C@@H](N)CCCNC(=N)N)[C@@H](C)CC)C(C)C)[C@@H](C)CC)C(=O)N[C@@H](CS)C(=O)N[C@@H](CC(N)=O)C(=O)O; setting = 128 µg/mL, 3 h, 37 °C; how to read = relative to: Triton X-100; measurement = hemolysis; value = 0.64%
